Published values from different studies.
Parts stem from different laboratories: compare values within a part only.

Block 1
Target: Ras GTPase-activating protein-binding protein 1, C-terminal RGG region (G3BP1, Homo sapiens, UniProt Q13283)
Chain of UniProt Q13283 (whole entry, looked up): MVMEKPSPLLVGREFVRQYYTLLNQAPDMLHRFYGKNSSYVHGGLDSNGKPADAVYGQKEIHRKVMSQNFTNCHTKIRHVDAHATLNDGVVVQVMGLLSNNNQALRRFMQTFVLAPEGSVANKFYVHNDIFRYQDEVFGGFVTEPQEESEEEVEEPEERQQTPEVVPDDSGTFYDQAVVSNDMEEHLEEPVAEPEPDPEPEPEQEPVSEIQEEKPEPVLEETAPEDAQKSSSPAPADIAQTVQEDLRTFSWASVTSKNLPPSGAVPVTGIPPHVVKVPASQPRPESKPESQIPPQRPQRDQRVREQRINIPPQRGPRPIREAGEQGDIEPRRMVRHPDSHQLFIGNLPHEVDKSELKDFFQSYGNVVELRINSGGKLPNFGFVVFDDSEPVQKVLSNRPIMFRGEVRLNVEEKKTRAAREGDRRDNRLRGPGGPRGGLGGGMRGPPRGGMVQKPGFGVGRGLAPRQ
Method: RNA Bind-n-Seq
Molecule type: RNA
Matrix: in vitro
Concentration: 1 µM
Setting: whole 134-nt RNA, ends assumed
Added: 150 mM KCl
Relative to: input library
Reading: higher = stronger binding
With `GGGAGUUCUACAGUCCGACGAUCCUCAAGUCCUGUGCUACACAUCGUAUGUACCGAAUCGGGCCGGCCGGCCGGGGAAAGUAUUAUGUUACGCCGUUCGGAUCUGCACUUCCAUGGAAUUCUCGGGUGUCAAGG` the log2 enrichment was -0.948.
For `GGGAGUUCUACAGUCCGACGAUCAGUCCUGUGCUACACAUCGUAUGUACCGAAUCGGGAAAAAGGAAAAAGGAAAAAGGGAAAGUAUUAUGUUACGCCGUUCGGAUCUGCACUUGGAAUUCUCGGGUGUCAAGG`, the log2 enrichment was -1.83.
`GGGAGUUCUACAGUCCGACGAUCCCUGUGCUACACAUCGUAUGUACCGAAUCGGGGAAAAAAGGGGAAAAAAGGGGAAAAAAGGAAAGUAUUAUGUUACGCCGUUCGGAUCUGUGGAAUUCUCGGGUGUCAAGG` gave a log2 enrichment of -1.6.
The log2 enrichment of `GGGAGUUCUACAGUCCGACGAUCGGUGCGGCUCUAUGAGUGGACAACAGAGAAGGAGCUGCGCACUGAGUGCAACCACUACAACAACAUCAUGGCCCUCUACCUGAAGACCAAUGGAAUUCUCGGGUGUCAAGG` is reported as -1.19.
`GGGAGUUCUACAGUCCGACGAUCCAAGUCCUGUGCUACACAUCGUAUGUACCGAAUCGGGCCCGGGCCCGGGGCCCGGAAAGUAUUAUGUUACGCCGUUCGGAUCUGCACUUCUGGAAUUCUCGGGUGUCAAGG` has a log2 enrichment of -1.86.
The log2 enrichment of `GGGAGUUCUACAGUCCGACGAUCUCUGAGCAAUUGAAUGCCCUAAACAAGGCUUACCAUGACCUUUGUGAUGGUUCUGCAAAUCAGCUUCAGCAGCUUCAGAGCCAGUUGGCUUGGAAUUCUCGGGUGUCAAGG` is reported as -2.46.
With `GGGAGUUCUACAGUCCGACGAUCACCAUGCAGGUGGGCAUCUUUGGGAAGUGGGGCAAGGGGGGGAUAGGGAGGGGGGUAACAGUUUGGGAACAGGUGGUCCCAGGUCGUUUCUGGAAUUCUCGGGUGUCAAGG` the log2 enrichment was 2.32.
With `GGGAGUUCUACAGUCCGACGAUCCACAGACAACACGCACCCACACAGACACAGAGGGAAGGGGUUGGGAUGGGGACAGGGUGCACAGAAAGGCGGGGUAGGACCCCAGCCCCUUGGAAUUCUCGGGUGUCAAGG` the log2 enrichment was -0.0127.
With `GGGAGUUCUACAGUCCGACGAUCCUCCUGGAGUGGAUCCGGCGCACCAUCCCCUGGCUGGAGGACCGUGUGCCCCAAAAGACUAUCCAGGAGAUGCAGCAGAAGCUGGAGGACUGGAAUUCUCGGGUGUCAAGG` the log2 enrichment was -2.43.
With `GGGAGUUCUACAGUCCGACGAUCUGGGAGGUGGAUUUUGUUUAUUUUUUUAGCUCAUUUCCAGGGGUGGGAAUUUUUUUUUAAUAUGGGUCAUGAAUAAAGUUGUUUUUGAAAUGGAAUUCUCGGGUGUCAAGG` the log2 enrichment was 3.44.

Block 2
Target: Sal-like protein 4, full length isoform A (SALL4, Homo sapiens, UniProt Q9UJQ4, residues 1-1053)
Chain of UniProt Q9UJQ4 (whole entry, looked up): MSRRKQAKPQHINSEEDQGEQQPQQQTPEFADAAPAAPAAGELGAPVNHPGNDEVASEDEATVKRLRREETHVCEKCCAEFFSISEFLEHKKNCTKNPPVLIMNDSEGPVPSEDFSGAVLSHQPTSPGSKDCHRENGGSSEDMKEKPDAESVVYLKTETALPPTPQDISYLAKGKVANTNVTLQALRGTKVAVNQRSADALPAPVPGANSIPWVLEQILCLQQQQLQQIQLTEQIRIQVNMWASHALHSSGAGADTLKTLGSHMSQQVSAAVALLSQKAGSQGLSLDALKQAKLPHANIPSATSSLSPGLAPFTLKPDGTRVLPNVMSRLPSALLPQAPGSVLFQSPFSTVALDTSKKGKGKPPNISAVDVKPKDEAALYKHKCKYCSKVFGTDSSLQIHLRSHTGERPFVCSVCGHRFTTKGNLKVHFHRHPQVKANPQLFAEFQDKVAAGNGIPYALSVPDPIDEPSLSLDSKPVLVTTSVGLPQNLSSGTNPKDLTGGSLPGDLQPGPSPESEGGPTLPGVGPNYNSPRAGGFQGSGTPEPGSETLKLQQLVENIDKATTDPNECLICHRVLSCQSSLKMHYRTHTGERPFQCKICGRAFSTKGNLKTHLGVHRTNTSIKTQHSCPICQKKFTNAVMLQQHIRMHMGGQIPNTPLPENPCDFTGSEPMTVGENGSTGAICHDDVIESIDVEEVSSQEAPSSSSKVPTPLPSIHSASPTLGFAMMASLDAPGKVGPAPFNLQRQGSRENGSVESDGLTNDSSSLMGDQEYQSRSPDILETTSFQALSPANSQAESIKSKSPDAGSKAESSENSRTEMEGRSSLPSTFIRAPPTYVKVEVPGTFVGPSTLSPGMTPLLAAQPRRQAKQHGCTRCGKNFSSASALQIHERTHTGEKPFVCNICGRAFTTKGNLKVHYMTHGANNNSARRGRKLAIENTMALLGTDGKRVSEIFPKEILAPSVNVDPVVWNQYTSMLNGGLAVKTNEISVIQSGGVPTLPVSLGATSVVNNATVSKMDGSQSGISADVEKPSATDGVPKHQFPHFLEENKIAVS
Method: universal PBM
Molecule type: double-stranded DNA, one strand shown
Matrix: in vitro
Concentration: 600 nM
Setting: 8-mer, flanks averaged, mean of replicates
Reading: higher = stronger binding
With `TAGTGCAA` the E-score was 0.215.
`GCCCATAC` has an E-score of -0.0372.
For `GTACAGTA`, the E-score was 0.208.
The E-score of `GTACGGCA` is reported as -0.136.
With `GGTTTGTA` the E-score was 0.0188.
`ACATCAAT` has an E-score of 0.264.
For `GGGGGTAA`, the E-score was -0.163.
With `CATCAAAC` the E-score was 0.0874.
With `TCGTAGCA` the E-score was 0.152.
`ACCAGGTG` gave an E-score of -0.304.
With `CACGGCTC` the E-score was -0.15.
With `ATTACGCC` the E-score was 0.0161.
For `ATGTTCTC`, the E-score was 0.1.
For `CAGTCCGC`, the E-score was -0.15.
The E-score of `CAAACGGC` is reported as -0.312.
`AGACACCT` gave an E-score of -0.066.
The E-score of `ACCCGTCG` is reported as -0.333.
The E-score of `ACTACTAG` is reported as 0.0817.
For `TGGCTACA`, the E-score was 0.149.
`CCCTTGTC` gave an E-score of -0.116.
With `GAGCGATC` the E-score was -0.229.
`CCCCTTAG` has an E-score of -0.309.
With `TAAGTCTA` the E-score was 0.109.
With `AAATGGTT` the E-score was 0.165.

Block 3
Target: Histone acetyltransferase KAT6A, both winged helices, GST fusion (KAT6A, Homo sapiens, UniProt Q92794, residues 1-181)
Method: protein binding microarray
Molecule type: double-stranded DNA, one strand shown
Matrix: in vitro
Concentration: not given
Setting: 8-mer, flanks averaged, mean of 2 arrays, mostly near background
Relative to: not given
Reading: higher = stronger binding
Target sequence (chain): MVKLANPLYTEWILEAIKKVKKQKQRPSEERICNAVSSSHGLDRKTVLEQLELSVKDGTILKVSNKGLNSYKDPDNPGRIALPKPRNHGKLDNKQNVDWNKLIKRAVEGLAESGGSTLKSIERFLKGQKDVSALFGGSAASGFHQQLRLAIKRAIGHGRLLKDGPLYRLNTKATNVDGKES
With `ACTACTTA` the E-score was -0.122.
With `AGCTCAGC` the E-score was -0.131.
For `ACGTACAT`, the E-score was -0.0389.
`CCTTATGC` has an E-score of -0.128.
`CTTAGCTA` has an E-score of -0.249.
The E-score of `ATACGTGA` is reported as 0.0138.
With `CAACGCAG` the E-score was 0.143.
The E-score of `ACAGCGAG` is reported as 0.0759.
For `CGGCCTAC`, the E-score was 0.119.
`CCATCGCC` has an E-score of 0.118.
The E-score of `GTTCATTA` is reported as -0.0782.
`CCATCGGC` has an E-score of 0.0547.
The E-score of `ATCGACTG` is reported as -0.133.
For `AGGCGCAA`, the E-score was 0.144.
For `GGGCAATA`, the E-score was 0.0186.
The E-score of `CTTCAAAA` is reported as -0.189.
For `CCCTATGC`, the E-score was -0.138.
`ATTGCCCG` gave an E-score of 0.0783.

Block 4
Target: RNA binding protein fox-1 homolog 2, RRM domain, GST-SBP tag (RBFOX2, Homo sapiens, UniProt O43251-10, residues 100-194)
Method: RNA Bind-n-Seq
Molecule type: RNA
Matrix: in vitro
Concentration: 365 nM
Setting: natural RNA segment, single round, ends assumed
Relative to: no-protein control
Reading: higher = stronger binding
Target sequence (chain): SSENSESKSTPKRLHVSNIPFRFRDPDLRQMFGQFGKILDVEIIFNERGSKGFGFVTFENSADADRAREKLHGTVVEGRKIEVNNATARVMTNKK
For `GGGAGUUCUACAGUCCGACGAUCGCAGUCUUCAUGCUGCCCUGCUGCUGCUGGAAGGAUGGGGAUCUUUCACCUUUAGGGAUCUCAGCACAAUUAGAAUCGUAAAGUGAAUUCUAUCUAUUUAAUUGGAUAUUUGGAAUUCUCGGGUGCCAA`, “RBNS enrichment (R)” read 0.574.
For `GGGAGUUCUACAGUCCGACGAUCAUUCUCUUCUAGUGUUUGCUUAAAAUAUGUGAAGUUUUUCUUGCUAUUUCAAUAACAAAUGGUGCUGCUAACACCCAACAUUUCCUAAAUUAUUUUCUAUCAUACAGUUUUGGAAUUCUCGGGUGCCAA`, “RBNS enrichment (R)” read 0.852.
`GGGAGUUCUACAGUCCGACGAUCCAUCUGAUAAGGGAAUCCCGUCUGCCCUGGGGCUGGAGAGAUGGGAGGGAGGUCUUAGGAUGUUGUAUGCUGUGCUGAGUGGGUGCCAGUUUGGCGUGAUGUCACGUGUGUGGAAUUCUCGGGUGCCAA` — result for “RBNS enrichment (R)”: 1.55.
For `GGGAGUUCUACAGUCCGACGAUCGUCUAAAGCAAUGAGGAGUUAUCACCUCAUCCUCAAACUCCAACAAGAUCUAUGCCUUAGUGUUGUUUUUGUUGUCUGCUUUGAUGUAAAAGCAAGAGUAUUUGGAGCAAUGGAAUUCUCGGGUGCCAA`, “RBNS enrichment (R)” read 0.292.
Under “RBNS enrichment (R)”, `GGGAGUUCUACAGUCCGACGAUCGAUUCAUUUUAUCGAGAUGCCAAGAUGAACACAAUGUGAAUAUCAUUUCCAUUUCUAAGCAGUUGAAUGACACAGUCAGAUUCUUUGGUGUAUGCUUUGUUCUUUCCAUCUGGAAUUCUCGGGUGCCAA` is recorded as 0.611.
For `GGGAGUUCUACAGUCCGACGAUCUGCGGAAAGGUAACCACAAAGUUAUGAUGAACUGCAAACAUCCAAAGGAUGUGAAAGUUUUUAUAUGUAUAAUGUUUUAUACACUUUUUAACUGGUUGCACUACCCGUGAUGGAAUUCUCGGGUGCCAA`, “RBNS enrichment (R)” read 0.255.
`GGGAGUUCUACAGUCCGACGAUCUACAGUGAUAUAUAUAGUGUUCUUAAAACGAUGUGUCUUGCUGCAGAAAUACUGAAAAAAUGCUGGUCAGCUUUAUCUUCCUAUGUCCUUUAUUAAAACCGUAUACAUAAUGGAAUUCUCGGGUGCCAA`: “RBNS enrichment (R)” 0.68.
`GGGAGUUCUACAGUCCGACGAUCUCUCUGUGGCAGUUUCAUAUUUGCUAAGACGAAUUUGCUCAUUAAACAUUUUGUUGUAUUUUACUUUAUGGAGCGGCUGUGUGUCCAGUAUGUCCGACCCUCUUCCUCGGUGGAAUUCUCGGGUGCCAA`: “RBNS enrichment (R)” 0.483.
Under “RBNS enrichment (R)”, `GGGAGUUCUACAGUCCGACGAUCUAUGGUGUCUGCAUCUCAGCAGAUCUGGUCUGAGGGAGCGAUUCCUGUGUGGCGCCGUCCAUCUGGCCACUGCAGUCCAACCUCCACAAGAGAGAAGAACUAAAGAAGUUUGGAAUUCUCGGGUGCCAA` is recorded as 0.18.
`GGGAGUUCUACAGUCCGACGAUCGAGGACUUUAGAGUUAUAUUCCAACAUUCAACCUAUAGAUAAGAAACAUUUCUAACCUUUGGUUUGCUGACAUGUGUAGUAACUCUCUAAAAUGUCUGGAGAUGGGCAAGUGGAAUUCUCGGGUGCCAA` — result for “RBNS enrichment (R)”: 0.575.
`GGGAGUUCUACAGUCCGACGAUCUCUCUCCUUUUUCUUUUUUCUUUUUCUUUUCUUUUUGUUUUUUGUUUUUUUUUGUGGGAGAUCAAAGGUUUAAAGUCUUACUCUUAAGAUGUGUUUGCAGAAAGAAGGAAUGGAAUUCUCGGGUGCCAA` — result for “RBNS enrichment (R)”: 2.01.
`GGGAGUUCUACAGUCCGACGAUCAAGUGGGGCAGGUUUGGUGGCUUCUGCCUGUAAUCACUGCAUUCAGAGGGGGCCAAGGCCUGUUUCAAAAACAACAACCAAGACAAGCAAAACCAGGUGUUGCUUUGCUAUGGAAUUCUCGGGUGCCAA` — result for “RBNS enrichment (R)”: 0.339.

Block 5
Target: Transcriptional repressor CTCF (CTCF, Homo sapiens, UniProt P49711, residues 1-727, full length assumed)
Chain of UniProt P49711 (whole entry, looked up): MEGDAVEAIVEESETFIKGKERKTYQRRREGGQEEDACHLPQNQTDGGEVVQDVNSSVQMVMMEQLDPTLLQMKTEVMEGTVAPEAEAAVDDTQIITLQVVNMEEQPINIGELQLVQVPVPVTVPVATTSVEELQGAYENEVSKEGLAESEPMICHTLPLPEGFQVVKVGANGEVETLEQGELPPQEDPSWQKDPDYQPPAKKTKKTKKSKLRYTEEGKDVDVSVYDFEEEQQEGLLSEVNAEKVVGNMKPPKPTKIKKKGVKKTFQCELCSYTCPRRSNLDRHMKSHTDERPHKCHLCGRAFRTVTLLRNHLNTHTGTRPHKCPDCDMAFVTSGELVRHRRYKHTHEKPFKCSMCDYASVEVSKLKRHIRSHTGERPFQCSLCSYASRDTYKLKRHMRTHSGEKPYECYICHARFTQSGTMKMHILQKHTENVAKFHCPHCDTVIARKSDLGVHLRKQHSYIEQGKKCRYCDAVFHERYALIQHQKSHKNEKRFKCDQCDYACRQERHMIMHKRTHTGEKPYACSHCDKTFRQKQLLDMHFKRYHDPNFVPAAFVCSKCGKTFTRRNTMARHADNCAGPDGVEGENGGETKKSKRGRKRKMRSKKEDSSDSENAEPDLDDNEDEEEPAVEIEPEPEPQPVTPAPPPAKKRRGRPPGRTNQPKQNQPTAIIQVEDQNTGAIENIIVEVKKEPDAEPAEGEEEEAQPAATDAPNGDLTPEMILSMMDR
Method: protein-binding microarray
Molecule type: double-stranded DNA, one strand shown
Matrix: in vitro
Concentration: not given
Setting: k-mer, scored over probes, only values ≥0.25
Reading: higher = stronger binding
`GCGCATAC` gave an E-score of 0.322.
`CACATATA` gave an E-score of 0.378.
For `CATTAAAA`, the E-score was 0.308.
With `GTATTACA` the E-score was 0.342.
`ACACAACA` has an E-score of 0.255.
For `ATAATAAC`, the E-score was 0.351.
With `AACAAATA` the E-score was 0.342.
`AAATATAC` has an E-score of 0.284.
The E-score of `AACAAGAA` is reported as 0.301.
With `AAACAGTA` the E-score was 0.266.
`AACCACTA` has an E-score of 0.374.
`AATAAACA` has an E-score of 0.308.
`AATTATAA` has an E-score of 0.299.
The E-score of `ATTAATTC` is reported as 0.298.
`CCCCCTGC` gave an E-score of 0.295.
`ACATTACA` has an E-score of 0.317.
`ACCATTAA` gave an E-score of 0.331.
For `AGTATTAA`, the E-score was 0.275.
With `GGTGCGCA` the E-score was 0.341.
For `ATAATAAT`, the E-score was 0.346.
With `CAAAATAA` the E-score was 0.294.
For `CGACAAAA`, the E-score was 0.271.
For `AATTTTAT`, the E-score was 0.268.
`ATATACGA` has an E-score of 0.269.

Excerpt of the above (block 5):
`GCGCATAC` gave an E-score of 0.322.
With `GGTGCGCA` the E-score was 0.341.
For `AATTTTAT`, the E-score was 0.268.
`ACACAACA` has an E-score of 0.255.
For `AGTATTAA`, the E-score was 0.275.
The E-score of `AACAAGAA` is reported as 0.301.
The E-score of `ATTAATTC` is reported as 0.298.
`CACATATA` gave an E-score of 0.378.
`AATTATAA` has an E-score of 0.299.
